# Published values of several laboratories.
# Each line is one published result; not all experiments were run side by side. Values joined by “and” are separate records of one study, mostly repeats; a detail may differ.
Compound,test,test system,setting,scale,endpoint,result
Cl.[2H]C([2H])([2H])CC(=O)c1cnc(NC(=O)C2CC2)cc1Nc1cccc(-c2ncn(C([2H])([2H])[2H])n2)c1OC,geometric mean,human,"oral, 10 mg single dose, fasted, liquid",,AUC(0-24 h),675 ng·h/mL
CC[C@@](O)(c1cnc(C(F)(F)F)c(Cl)c1)c1c2cnn(C3CC3)c(=O)c2nn1C,,"rat Sprague-Dawley male, blood","intravenous, 1 mg/kg",,"CLint,u",14.9 mL/min/kg
C[C@@H](N)c1cc(Cl)ccc1Cn1c(=S)[nH]c(=O)c2[nH]ccc21,,human matched controls,"oral, 2.5 mg single dose",,adverse events causing discontinuation,0%
FC(F)(F)c1ccc(CNc2ccc(Cc3c[nH]c4ncc(Cl)cc34)cn2)cn1,,patients with advanced solid tumours,"oral, dose not given, phase Ib, not related to compound",,"adverse events, any",6%
Cc1nc(C)c(-c2ccnc(N)n2)s1,,"octanol/buffer, 40 mM buffer",pH 11,,logP,1.59
C=CC(=O)Nc1cc(Nc2nccc(-c3cn(C)c4ccccc34)n2)c(OC)cc1N(C)CCN(C)C,storage stability,human plasma,"5 h, -80 °C, medium QC level",,recovery,99.2%
Cc1nc(C)c(-c2ccnc(Nc3cccc([N+](=O)[O-])c3)n2)s1,,"octanol/buffer, 40 mM buffer",pH 11,,logP,4.06
COc1ccnc(C(=O)NC(CO)C(=O)O)c1O (racemic),,"Staffordshire loam sediment, aerobic dark",20 °C,,DT50 sediment,52.7 days
CC(C)Nc1nc2cc(Cl)c(Cl)cc2n1[C@H]1O[C@@H](CO)[C@H](O)[C@@H]1O,population PK model,human,"oral, 70 kg body weight",,Vc/F,17.8 L
CCc1cc2ncc(CN3CCN(c4ccc(C(=O)NC)nc4)CC3)cc2[nH]c1=O,,"male rat, blood","oral, 50 mg/kg/day, 4 weeks",relative to: vehicle control,Monocytes count ratio,0.33
CO[C@H]1/C=C/O[C@@]2(C)Oc3c(C)c(O)c4c(O)c(c(/C=N/N5CCN(C)CC5)c(O)c4c3C2=O)NC(=O)/C(C)=C\C=C\[C@H](C)[C@H](O)[C@@H](C)[C@@H](O)[C@@H](C)[C@H](OC(C)=O)[C@@H]1C,,healthy humans,"oral, dose not given",,adverse event Gingivitis,0%
CNC(=O)c1ccc(-c2cnc3ncc(Cc4ccc5ncccc5c4)n3n2)cc1F,item: Dizziness,hepatocellular carcinoma patients,"oral, 600 mg twice daily, expansion cohort, grade 3-4",,patients with adverse event,0%
CNC(=O)c1cc(Oc2ccc(NC(=O)Nc3cc(C(C)(C)C)nn3-c3ccc4ncccc4c3)c(F)c2)ccn1,item: worst grade 2,human,"oral, dose not given, cycles 1 and 2, Low AUC(0-4 h) subgroup",,patients with musculoskeletal disorder AE,7%
Cc1ccc([C@@H]2O[C@H](CO)[C@@H](O)[C@H](O)[C@H]2O)cc1Cc1ccc(-c2ccc(F)cc2)s1,,Japanese type 2 diabetes patients,"25 mg, day 5, 24 h urine collection",relative to: baseline,urinary potassium excretion change,-0.195 mEq
Cn1ncnc1[C@H]1c2n[nH]c(=O)c3cc(F)cc(c23)N[C@@H]1c1ccc(F)cc1,,"human patients, plasma","oral, 600 µg/m2, dose level DL5, median, with: temozolomide 40 mg/m2 daily days 2-6",,accumulation half-life,34.1 h
N[C@H]1C(O)O[C@H](CO)[C@@H](O)[C@@H]1O (some centres unmarked),,aqueous solution,"15 mM, with: glucose",,osmolality,12 mOsmol/kg
CCOc1ccc2ccc(=O)oc2c1,,"Beagle dog, male, hepatocytes",1 µM,,hepatic clearance,> 28.4 mL/min/kg
O=C(O)CSc1nnc(Br)n1-c1ccc(C2CC2)c2ccccc12,,"KM mouse, chronic hyperuricaemia model","dose not given, day 25",,body weight,37.8 g and 36.8 g and 32.6 g and 34.8 g and 41.6 g and 38.8 g
CCc1c(-c2ccccc2)c(-c2ccccc2)nn1-c1ccccc1-c1cccc(OCC(=O)O)c1,,"male Sprague-Dawley rat, testis","oral, 10 mg/kg, 1 h",,concentration,220 ng/g
C1=C/COCc2cc(ccc2OCCN2CCCC2)Nc2nccc(n2)-c2cccc(c2)COC/1,,"rat Sprague-Dawley male, plasma","oral, dose not given, with: isavuconazole",relative to: without isavuconazole,CLz/F decrease,67%
